Measurements of several laboratories.
A part holds a random share of what one study measured. Changes are numbered by the printed parent chain.

Sample 1
Target: NFE2L3, bZIP domain (human)
Method: DHFR protein complementation
Medium: yeast
Setting: single substitutions, most at no-binding floor
Baseline: wild-type JUN-FOS pair
Reading: higher = stronger binding
Measurement: binding fitness
Parent: JUN, bZIP domain (human); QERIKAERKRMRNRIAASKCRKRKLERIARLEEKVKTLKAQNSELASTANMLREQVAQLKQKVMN; partner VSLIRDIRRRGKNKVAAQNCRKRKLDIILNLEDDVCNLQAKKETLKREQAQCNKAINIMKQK
A29E: -1.36 natural log
V35K: -1.52 natural log
K39N: -1.46 natural log
S43F: -1.44 natural log
I28E: -1.26 natural log
T37S: -1.43 natural log
E32M: -1.3 natural log
A29Q: -1.47 natural log
Q41F: -1.54 natural log
E33H: -1.54 natural log
L45K: -1.55 natural log
T48H: -1.43 natural log
V35G: -1.49 natural log
N42V: -1.45 natural log
E33G: -1.51 natural log
L38K: -1.53 natural log
Q55T: -1.31 natural log
M51T: -1.45 natural log
L38S: -1.53 natural log
E32D: -1.51 natural log
K39L: -1.41 natural log
R30N: -1.46 natural log
S47F: -1.36 natural log
T37W: -1.53 natural log
L38C: -1.36 natural log

Sample 2
Target: RNA binding protein fox-1 homolog 2, RRM domain, GST-SBP tag (RBFOX2, Homo sapiens, UniProt O43251-10, residues 100-194)
Method: RNA Bind-n-Seq
Form: RNA
Medium: in vitro
Concentration: 365 nM
Setting: natural RNA segment, single round, ends assumed
Baseline: no-protein control
Reading: higher = stronger binding
Measurement: RBNS enrichment (R)
Constant ends, left off below: GGGAGUUCUACAGUCCGACGAUC … UGGAAUUCUCGGGUGCCAA
Residues (chain): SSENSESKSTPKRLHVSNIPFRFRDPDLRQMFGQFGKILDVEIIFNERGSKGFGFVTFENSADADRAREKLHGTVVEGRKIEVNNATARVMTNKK
GGGUUUGGGCUAAGAUCUAAGACCCAGCAGAUAGGAGACAGCAGGUACCACCCACACAGCACAGCUCUUCAUUCACAGUCAAGAGUUUAGACUGCUCCAGCUGGGACAUC: 0.256
AGGUGAUGCUGAGGUCCCUUGUGGAAGCCUCUCUUGGGAAUCUCAACUGCAGAGGAGCUGCCCUCUGUCAGCAGCUCUCCAGCAUGGUCCUCUGACACUCCUCAGAUGAA: 0.532
UGGACGCACAUAUACAUAGAUGUACUCACUUAUCUAUGGUACAGAUGGGUGGGGAAGAGGUUGCUCUUUACUCUCCAUCUCUGACACAAAGUGUAGCUGCUAGAGGGAUG: 0.272
UCCUGACCCUCAGCUGGCCCUGCCCAGCCACCCUGGACGUGACCGUAUCCCUCUGCCACACCCCAGGCCCUGCGAGGGGCUAUCGAGAGGAGCUCACUGUGGGAUGGGGU: 0.216
GCCUUUUUUUAAAAAACAAAAACCACAAAAAUUCCCAAACCAUACUUGCUAAAAAUUCUGGUAAGUAUGUGCUUUUCUGUGGGGGUGGGAUUUGGAAGGGGGGUUGGGUU: 0.54
ACAAAUUGUCUUAUAUAUGAAGCCAUAGAUUAAAUUAUGCUUUAUUCUUAAUGGCAUCUAAGCUAUUAUACAGACUUACUAACACUGUCAGAAAACAAAAAAACAGGUCC: 0.328
GUGAUCAUGGCUUCUCUAGCUGAACUUGGCUGAGAACCUUUGACAAGGGAUUGGCACCAAGACCAGGCAGCCCUUGAUUUCCUCGCUCUCUGGAGCUAGUCAGUGUCCUA: 0.371
UGUGUAAAUUGCUAUUCAACACUUGGAUAUUACCAGUCUGUGGUUUAAUUAUUCCUCCUAGUGAGCUUGCAAAGCAUAGACUAAAUUAAACCCUAAUGUUAGAUGUCAGU: 0.315
AACUGCGCCUGCAGUCACUAUCCCUACUUUUGUGGUUCAUAGAAGUCUGCAUGUGCGUUGAUUCUGUAGAGCUGUUAGUGGCUUAGUUUUUAAACUCCUAUUGGGGAGUA: 1.08
UUUCAGUUGUCUUGAAGAGCUCUUGCUACUAACUUUGGGUCCUGCUUUUCAUUUAGGUAGAUGGUAAGCAUUCUCUUAAUCAUAAUUAGAACAAACUAGUGACCAAAUUG: 0.401
UUCUGUCAGAUGCUACUCCAAAUGUUACCAGAACGAUGACAAAAGGGGAGACGCUCUAUUUUUUCACAGUUAAAUGACAGUUGUAGAUUGAUACGCAGUUGUGCAUGGGA: 1.89
GAUGUAAAUCUGUUUUUUAAAAACACUUUUUAGGGGCUUGAGAGCUGCCACCUGGCAUUUAGUUUAGUGCGGCCAGUGACUGCUUCAAGAGACUUCUGACCUUGCUUCCC: 1.65

Sample 3
Target: Ras GTPase-activating protein-binding protein 1, full length (G3BP1, Homo sapiens, UniProt Q13283)
Chain of UniProt Q13283 (whole entry, looked up): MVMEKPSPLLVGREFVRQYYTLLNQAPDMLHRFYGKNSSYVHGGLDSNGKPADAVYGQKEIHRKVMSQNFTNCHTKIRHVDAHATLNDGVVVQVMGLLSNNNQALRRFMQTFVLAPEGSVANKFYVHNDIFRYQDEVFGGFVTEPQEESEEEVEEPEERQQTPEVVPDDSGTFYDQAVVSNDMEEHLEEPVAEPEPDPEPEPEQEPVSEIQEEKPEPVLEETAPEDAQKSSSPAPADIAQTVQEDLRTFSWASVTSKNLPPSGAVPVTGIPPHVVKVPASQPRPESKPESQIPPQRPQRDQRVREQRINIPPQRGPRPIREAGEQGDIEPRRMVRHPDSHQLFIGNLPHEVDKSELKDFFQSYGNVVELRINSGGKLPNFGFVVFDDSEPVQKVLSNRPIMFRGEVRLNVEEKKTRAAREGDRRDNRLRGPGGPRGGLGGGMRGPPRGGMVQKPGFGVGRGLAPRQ
Method: RNA Bind-n-Seq
Form: RNA
Medium: in vitro
Concentration: 200 nM
Setting: whole 134-nt RNA, ends assumed
With: 150 mM KCl
Baseline: input library
Reading: higher = stronger binding
Measurement: log2 enrichment
Constant ends, left off below: GGGAGUUCUACAGUCCGACGAUC … UGGAAUUCUCGGGUGUCAAGG
UCCUCAAGUCCUGUGCUACACAUCGUAUGUACCGAAUCGGCGGGGCGGGCGGAAAGUAUUAUGUUACGCCGUUCGGAUCUGCACUUCCAG: -0.0846
UGUGCUACACAUCGUAUGUACCGAAUCGGGGCCCCCCCGGGGCCCCCCCGGCCCCCCCGGGGAAAGUAUUAUGUUACGCCGUUCGGAUCU: -2.01
CACAGACAACACGCGCCCACACAGACACAGAGGGAAGGGGUUGGGAUGGGGACAGGGUGCACAGCAGGGCGGGGUAGGACCCCAGCCCCU: 1.86
AGUCCUGUGCUACACAUCGUAUGUACCGAAUCGGGGAAAAAGGAAAAAGGAAAAAGGAAAGUAUUAUGUUACGCCGUUCGGAUCUGCACU: -0.763
UGUAGAAAAGGCACUGGACUAACACUUGGCUGUAUCUUGUAACAGGCAUGUUAUGUUACCCAGAGAACUUUCCAAACAAGUACCUAAAAC: 0.062
CCUGUGCUACACAUCGUAUGUACCGAAUCGGGUUUUUUUGGGAAAAAGGGAAAAAAAGGGAAAGUAUUAUGUUACGCCGUUCGGAUCUGC: -1.02
UGGCCCUGGUGGCAUGUGGGGAGGAAGAGGUGGCCUCAUGGAUCGUGGUGGUCCCGGUGGAAUGUUCAGAGGUGGCCGUGGUGGAGACAG: 0.279
CUCAAGUCCUGUGCUACACAUCGUAUGUACCGAAUCGGUUUGGUUUUUGGAGGAAAGUAUUAUGUUACGCCGUUCGGAUCUGCACUUCCA: -0.324
GUCCUGUGCUACACAUCGUAUGUACCGAAUCGGGCCCCCGGGGCCCCCGGCCCCCGGGAAAGUAUUAUGUUACGCCGUUCGGAUCUGCAC: -0.687
UCCUGUGCUACACAUCGUAUGUACCGAAUCGGGUUUUUGGGUUUUUUUGGGAAAAAGGGAAAGUAUUAUGUUACGCCGUUCGGAUCUGCA: -0.416
UGGAGCACAGGGCGAGCUCUCCUCCGCCCUGCAGCCUCAGGUAAGGAUCCGGACCUUCACUGCUGCCCCAACUGGGGCUCCUCAGCUCGG: -0.566
UGGCCCUGGUGGCAUGCGGGGAGGAAGAGGUGGCCUCAUGGAUCGUGGUGGUCCCGGUGGAAUGUUCAGAGGUGGCCGUUGUGGAGACAG: 0.0699
GCAGGAAGUAAAAACAAAUGGAAGUGCUUCGGAUAGUGGCAGGGGUGGGGGUUGCUAAGGAAAGGGUGGGAUGGGAGUGGGUAAAGAGUU: 1.43
ACCAUGCAGGUGGGCAUCUUUGGGAAGUGGGGCAAGGGGGGGAUAGGGAGGGGGGUAACACUUUGGGAACAGGUGGUCCCAGGUCGUUUC: 1.15

Sample 4
Target: RING finger protein unkempt homolog, zinc fingers 1-6, GST-SBP tag (UNK, Homo sapiens, UniProt Q9C0B0, residues 30-357)
Method: RNA Bind-n-Seq
Form: RNA
Medium: in vitro
Concentration: not given
Setting: RNA with constant flanks, human and mouse sites, ends assumed
Baseline: input RNA pool
Reading: higher = stronger binding
Measurement: bound/input enrichment
Constant ends, left off below: GGGAGUUCUACAGUCCGACGAUC … CAACAGAGGAUUGAGCAUCA
Construct (chain): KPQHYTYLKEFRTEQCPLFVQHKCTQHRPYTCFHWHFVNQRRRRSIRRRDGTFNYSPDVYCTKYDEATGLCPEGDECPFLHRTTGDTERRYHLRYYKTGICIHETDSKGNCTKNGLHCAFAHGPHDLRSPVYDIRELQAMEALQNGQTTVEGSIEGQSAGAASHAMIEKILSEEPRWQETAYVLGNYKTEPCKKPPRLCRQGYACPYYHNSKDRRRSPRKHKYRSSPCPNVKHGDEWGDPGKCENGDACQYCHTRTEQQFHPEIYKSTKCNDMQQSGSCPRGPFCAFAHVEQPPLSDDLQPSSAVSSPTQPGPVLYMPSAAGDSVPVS
CUCCCCUCUUGUUGUGUUUCUUUCAGGGAUACCAUUAAUUUAAUUGUAUGAUUUGUCUGCACUCAGUUUCUCCCCUUCUCAAAUCUCAGCCCCGCGUUGUUCUUUGUUACUGUCAGAAAA: 0.905 ratio
UCUGGCUUAGAUAAUAUGGCUACACACUUAAGUCAACAUAAAACUCAUACUUGCCAAGUUGUAAUGCAGAAAGUUUCUGUUUGUAUCCCAACUUCUGAGCACCUUUCUGAAUUAAAAAAA: 0.313 ratio
AUGAUAAUGGCAUCAGCUGCUAAGGAAUUUAAAAUGGACAACUUUUCACCUAAAGCUGGCACUAGCAAAUUGCAACAGACAGUACCAGCUGAUGCAUCUCCUGAUUCUAAGUGUCCUAUA: 0.0871 ratio
UCCUAAUACUCCACAUUCAAACUGAAGAGGAAAAUUGAAAUCUCUAAUGAAGCUGCUGUGUGUAUUUAUGAAUAUUAAUGAAUAAAAACUGCUUGGAUGGUUUACCUUAACUACUGCAUG: 0.748 ratio
CGUGGAUUUAUCGCUGCCACGGUCUGCGUAGCUCCAGAGGUUUAACCAUAGGAUAGAGAAACCAGGAAUGUAAUGAGGAAAUCAAAAUGGAUCCAAGUAUGGGUGUGAAUUCUGUUACCA: 1.58 ratio
AGCAGGAAGAAUGUGCUUGGUCACAUGCAGCAGGGUGGGAGCCCAACCCCAUUUGAUAGGAAUUUUGCCACUAAGAUGGGCGCCAAGGCUAUGAACUGGAUGUCUGGGAAAAUCAAAGAG: 0.296 ratio
GUGAUUUUUUCCCCCCCAACUCCGUGUUUCGCUAAGGAAUUAUUUCGCACACGGACCAUUCUUAGCAGUUUCCUCAGUGAUGGAAUAUUCAUGAAUGUGAGUCAUUAUGUAGCCGUCGUA: 0.611 ratio
CCCCUCAUUUGACCUUUCACCUCUGUCUGUUGGAAGCAGUACUUUUUACUGCCUCCUUGUCUUCUGUACAUCUUACUGGGUUUAAUUAAAAAAAGAAAAAAGAAAAAACAACUCUUGUAA: 0.509 ratio
GUGACCUGGGGGCAGGACCCAGAACUCAGGUCCCGCAUGAGCAGCACAUGCCCAUCCCUGCUGAGCCGUCUGUCAGAAAAGAAAGCUAUUCUUUCUGUUCUCAAGUGAACUUUCAUCUGU: 0.123 ratio
CAACAAUACUCAGGGAGGAGACUCCCAUAAUGGAAACUUUGUCAUUCCCCAGAUACAAUGUAGCUGAGCUUGUGGUUCAUAUUCGCAAUAAAUUAUUAACAGGAGCAGAUGGCAAAAACC: 0.248 ratio
CCGUCUCAGCUUACCCACUCUUGACUCCUUUGAGCCUUUCAGAGGGGCAGUUUCUGGUAGUAGCAGCUUUUAUACUUUCACGGAAUUCCUUCAGUCCAGAGAGUUCUGGCAGCAGGCCGU: 0.161 ratio

For quick reference, copied from above (sample 1):
T48H: -1.43 natural log
N42V: -1.45 natural log
E32D: -1.51 natural log
V35G: -1.49 natural log
A29Q: -1.47 natural log
T37S: -1.43 natural log
S43F: -1.44 natural log
E33G: -1.51 natural log
L45K: -1.55 natural log
